Assay results of several laboratories.
Parts stem from different laboratories: compare values within a part only.

Study 1 — cell line: A-375; tested at: 100 µM; time: 36 h
Structure (SMILES) | viability
C[C@]12CCC(=O)C=C1C=C[C@@H]1[C@@H]2CC[C@@]2(C)[C@H]1CC[C@@]21CCC(=O)O1 | 61.4%
CCOC(=O)C1=C(C)NC(C)=C(C(=O)OC)C1c1cccc(Cl)c1Cl (stereo not shown) | -2.22%
COc1cc([C@@H]2c3cc4c(cc3[C@@H](O[C@@H]3O[C@@H]5CO[C@@H](C)O[C@H]5[C@H](O)[C@H]3O)[C@H]3COC(=O)[C@H]23)OCO4)cc(OC)c1O | 97.7%
O=C(O)CCNC(=O)c1ccccc1 | 102%
CCN(CC)C(=O)/C(C#N)=C/c1cc(O)c(O)c([N+](=O)[O-])c1 | 81.2%
CC(C)=CCC/C(C)=C/CC/C(C)=C/CC/C(C)=C/CC1=C(C)C(=O)c2ccccc2C1=O | 51.7%
OC[C@H]1O[C@@H](O[C@@H]2[C@@H](CO)OC(O)(CO)[C@H]2O)[C@H](O)[C@@H](O)[C@H]1O (mixture of isomers) | 97.4%

Study 2 — effect on: enzyme activity; mode: inhibitor; tested at: 0.5 µM; baseline: control
Target: Maternal embryonic leucine zipper kinase (MELK, Homo sapiens, UniProt Q14680)
Sequence of UniProt Q14680 (whole entry, looked up): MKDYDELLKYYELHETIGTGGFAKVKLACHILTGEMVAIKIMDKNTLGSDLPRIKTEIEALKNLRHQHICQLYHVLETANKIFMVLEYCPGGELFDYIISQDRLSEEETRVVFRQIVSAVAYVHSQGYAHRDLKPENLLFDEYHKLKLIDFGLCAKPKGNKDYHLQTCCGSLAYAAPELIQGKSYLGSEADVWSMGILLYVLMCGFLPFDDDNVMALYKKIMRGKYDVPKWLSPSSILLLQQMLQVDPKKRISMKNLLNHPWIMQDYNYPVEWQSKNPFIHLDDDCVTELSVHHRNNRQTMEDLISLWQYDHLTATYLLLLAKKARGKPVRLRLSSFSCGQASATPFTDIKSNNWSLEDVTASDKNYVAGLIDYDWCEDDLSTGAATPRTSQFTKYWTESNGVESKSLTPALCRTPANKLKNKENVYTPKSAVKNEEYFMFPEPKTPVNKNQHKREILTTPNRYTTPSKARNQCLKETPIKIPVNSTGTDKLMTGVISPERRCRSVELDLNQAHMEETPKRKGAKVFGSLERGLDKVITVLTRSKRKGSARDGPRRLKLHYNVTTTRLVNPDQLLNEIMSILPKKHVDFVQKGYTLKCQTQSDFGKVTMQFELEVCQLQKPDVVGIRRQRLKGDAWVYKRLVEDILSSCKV
SMILES | remaining activity [%]
O=C1NC(=O)C(c2cn(CCCO)c3ncccc23)=C1c1cnccn1 | 101
COc1cc2nccc(Oc3ccc(NC(=S)NC(=O)c4ccccc4C)cc3)c2cc1OC | 98.5
OCC(O)CCON=C1C(c2c(O)[nH]c3ccccc23)=Nc2ccccc21 (stereo not shown) | 13.1
O=C(O)c1ccc2c3c1cccc3c(=O)n1c3ccccc3nc21 | 97
Cn1sc(=O)n(Cc2ccccc2)c1=O | 99.3
COc1cc2ncnc(Nc3ccc(Oc4ccccc4)cc3)c2cc1OC | 101
Oc1ccc(-c2nc(-c3ccncc3)c(-c3ccc(F)cc3)[nH]2)cc1 | 102
COc1ccc(OC)c2c(=S)c3ccccc3[nH]c12 | 96.6
O=S(=O)(c1cccc2cnccc12)N1CCCNCC1 | 78.6
Cc1nc(-c2ccccc2)c(-c2ccncc2)o1 | 105
O=c1c2ccccc2[nH]c(=S)n1CCN1CCC(=C(c2ccc(F)cc2)c2ccc(F)cc2)CC1 | 104
CNC(=O)c1cc(Oc2ccc(NC(=O)Nc3ccc(Cl)c(C(F)(F)F)c3)cc2)ccn1 | 93.6
Nc1ncnc2n[nH]c(Nc3ccc(F)cc3)c12 | 97.7
Cc1cccc(-c2[nH]c(C(C)(C)C)nc2-c2ccc3c(c2)OCO3)n1 | 92.7

Study 3 — tested at: 0.1 µM; baseline: DMSO
SMILES: CNC(=O)Nc1ccc2c(c1)C1(CC2)OC(=O)N(CC(=O)N(Cc2ccc(F)cc2)[C@@H](C)C(F)(F)F)C1=O (single isomer, unassigned)
cell line | notes | viability [%]
sample I colorectal tumour organoid | – | 108
sample C colorectal tumour organoid | replicate 2 | 101
sample I colorectal tumour organoid | replicate 2 | 93.7

Study 4 — effect on: AlphaScreen signal; technique: AlphaScreen counter screen; matrix: His6 peptide without bromodomain; tested at: 50 µM; notes: assay interference check
SMILES | inhibition
Cc1cc2c(F)c(Oc3ncnn4cc(OC[C@@H](C)O)c(C)c34)ccc2[nH]1 | 26.8%
CN1C=CC=CC1=C(C#N)c1nc2ccccc2s1 | 66.7%
CCOC(=O)CSc1ccc2nnc(-c3ccc(OC)c(OC)c3)n2n1 | 24.6%
COc1ccc(Nc2nccc(-c3cccc(C#N)c3)n2)cc1 | 6.7%
NC1(c2ccc(-c3nc4ccn5c(=O)[nH]nc5c4cc3-c3ccccc3)cc2)CCC1 | 25.4%
Cc1ccc(NC(=O)c2ccc(CN3CCN(C)CC3)cc2)cc1Nc1nc(-c2cccnc2)cs1 | 56.6%
C#Cc1cccc(Nc2ncnc3cc(OC)c(OCCCCCCC(=O)NO)cc23)c1 | 34.3%
